Measured values pooled from the literature.
“And” joins repeats or separate records; there may be more than shown. ± gives the spread as reported. ≈ marks a conversion by molar mass, not a printed value.

| SMILES | tested on | test | test system | setting | how to read | quantity | result |
| --- | --- | --- | --- | --- | --- | --- | --- |
| CC(C)(C)NCC(SS(=O)(=O)O)c1ccccc1 (stereo not shown) | Schistosoma mansoni | – | mice | 400 mg/kg single dose, 1248 h, dosed day 7, perfused 52 | baseline: vehicle | male worm burden reduction | 20% |
| COC1CN([C@H]2CC[C@H]([C@@]3(C)Oc4c(Cl)cc(C(=O)NCc5c(SC)cc(C)[nH]c5=O)c(C)c4O3)CC2)C1 | – | RNA-seq, measured: PTPRD mouse homolog | mouse, HT-1376 xenograft, whole blood | dose not given | baseline: vehicle | log2 fold change | 0.373 |
| CC(O)CNCC(C)O.O=C(O)C(Cl)Cl (stereo not shown) | Eclipta prostrata | – | – | 15 mg/mL, 21 days, pre-emergence, greenhouse | – | herbicidal inhibition | 0% |
| O=C1C(=O)c2[nH]cc3c2C(=C1Cl)NCC3 | Babesia divergens | parasite growth, SYBR Green | – | 60 h, blood stage | – | IC50 | 3.7 µM |
| CN1CCCNC(=O)c2cccc(c2)C(=O)NCCCN(C)CCCNc2cccc3c2C(=O)c2cccc(c2C3=O)NCCC1 | SAS | RNA-Seq, measured: ATP6V0A1 mRNA | – | 1 µM, 6 h | baseline: untreated cells | log2 fold change | -0.656 |
| FC(F)(F)c1cccc(CNc2nc(NC3CCN(Cc4ccccc4)CC3)c3nc[nH]c3n2)c1 | Cryptococcus neoformans | RNA-seq, measured: MIOX (CNAG_06623) | wild type | 48 µg/mL, 3 h | baseline: untreated wild type | log2 fold change | 2.15 |
| NCCOCCO.O=C(O)C(Cl)Cl | Eleusine indica | – | – | 15 mg/mL, 21 days, pre-emergence, greenhouse | – | herbicidal inhibition | 0% |
| Cc1nc2c(NCc3cccc(S(C)(=O)=O)c3)nccn2c1-c1ccc(O)c(F)c1 | Rhinovirus B | viral replication, high-content imaging | RV-B14 | – | – | IC50 | 0.044 ± 0.026 µM |
| C=C(NC(=O)c1csc(-c2nc3c(cc2O)-c2nc(cs2)C(=O)NC(C(C)O)C(=O)NC(=C(C)OC)c2nc(cs2)C(=O)NC2c4nc(cs4)C(=O)NC(COC(=O)c4c5c6c(cccc6n4O)COC(=O)C(OC4CC(C)(O)C(N(C)C)C(C)O4)C2OC5)c2nc-3cs2)n1)C(N)=O (stereo not shown) | Staphylococcus epidermidis | broth microdilution | methicillin-resistant isolates | – | – | MBC | 0.25 µg/mL (≈ 0.174 µM) |
| C=C[C@]1(C)C[C@@H](OC(=O)CSc2ccc(NC(=O)c3ccco3)cc2)[C@]2(C)[C@H](C)CC[C@]3(CCC(=O)[C@H]32)[C@@H](C)[C@@H]1O | Mycoplasma gallisepticum | – | infected chickens | intramuscular, 50 mg/kg daily x3, scale 0 to 4 | direction not given | air sac lesion score | 1 and 2 and 0 and 3 |
| Cc1ncsc1-c1ccc(C(C)NC(=O)C2CC(O)CN2C(=O)C(NC(=O)CCCCCCCCCCN2CCCC(Nc3ncc(Cl)c(Nc4ccccc4S(=O)(=O)C(C)C)n3)C2)C(C)(C)C)cc1 (stereo not shown) | 22Rv1 | RNA-seq, measured: NAIF1 mRNA | – | concentration not given | baseline: DMSO | log2 fold change | -1.69 |
| Nc1ncc(-c2cc(-c3cnn(CC(F)(F)F)c3)ncc2F)nc1C(=O)NC1CNCC(F)C1 (stereo not shown) | EPHA8 | KINOMEscan | – | 1 µM | baseline: DMSO control | remaining binding | 95% |
| C[N+](C)(C)CCO.O=C([O-])C(Cl)Cl | Amaranthus retroflexus | herbicidal activity | – | 15 mg/mL, 21 days, post-emergence greenhouse | – | inhibition | 0% |
| CNCc1ccc2c(c1)C[C@H](CNC(=N)N)[C@H]2NC(=O)C(=O)Nc1ccc(Cl)c(F)c1 | HIV-1 | pseudovirus infection, Env pseudovirus neutralisation | TZM-bl, clade C T/F isolate 2A2 | – | – | IC80 | > 100 µM |
| O=C(Oc1cc(OC(=O)c2cc(O)c(O)c(O)c2)c2ccccc2c1)c1cc(O)c(O)c(O)c1 | herpes simplex virus 2 | plaque | 333, BALB/c mice, genital herpes model, vaginal lavage | 15 and 30 mg/kg/day, 4 days post infection | – | viral load | decreased |
| C=CC(=O)Nc1cccc(Cn2ncc3cnc(Nc4cnn(CCOC)c4)nc32)c1 | GRK4 human | binding, KINOMEscan | – | 100 nM | lower = stronger binding | percent of control | 11% |

A few entries again:
| SMILES | tested on | test | test system | setting | how to read | quantity | result |
| --- | --- | --- | --- | --- | --- | --- | --- |
| FC(F)(F)c1cccc(CNc2nc(NC3CCN(Cc4ccccc4)CC3)c3nc[nH]c3n2)c1 | Cryptococcus neoformans | RNA-seq, measured: MIOX (CNAG_06623) | wild type | 48 µg/mL, 3 h | baseline: untreated wild type | log2 fold change | 2.15 |
